Measurements collected from several papers.
Parts stem from different laboratories: compare values within a part only.

Series 1
Target: RNA binding protein fox-1 homolog 2, RRM domain, GST-SBP tag (RBFOX2, Homo sapiens, UniProt O43251-10, residues 100-194)
Method: RNA Bind-n-Seq
Molecule type: RNA
Sample: in vitro
Tested at: 365 nM
Notes: natural RNA segment, single round, ends assumed
Relative to: no-protein control
Direction: higher = stronger binding
Measurement: RBNS enrichment (R)
All sequences stand within: GGGAGUUCUACAGUCCGACGAUC … UGGAAUUCUCGGGUGCCAA
Target sequence (chain): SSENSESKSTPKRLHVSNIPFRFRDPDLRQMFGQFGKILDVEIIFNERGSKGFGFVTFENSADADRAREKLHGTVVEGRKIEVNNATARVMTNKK
CCUCCUGUUACAGUGUCUCUUGUCCCACCCUUACUGGAGGAAAAAAAAAAAAAAAACUCUAUCUCUUGGAAGUAGCUGAGGUAACCUUCCAGCUCCCUGCACCCAGAGGG: 0.869
AUGUCAACAGCCAUGGUGAACCAGAUCUGGGCAGGGUUCCCCAAACUCUAUUCAACCAGAGUUUUAUCACGCACCUCAUCGGGUCUCUCCUGGUUGCUGCCCCGAGGUGA: 0.335
ACCUUGCUGGGGUGGGGUGCCACCUCCAGUGGCCAGCUCCAGAUCCAAGGAGCAGCCCCCUGGGGAUGGACCCCAUUCAUUCAUCAUGACUCCCAACAGUUUUCAUUGUG: 0.185
GCACCUGACUGGGAGCUAGGGGACCACCUGCCUUGGCCAGACCUGGGACGCCCCCAGACCCUGACUUUCUCCUGCGUGGGCCGUCUCCUCCUGCGGAAGCAGUGACCUCU: 0.465
AACUGAUGAUUGAAGAGUAAAUGGGGGAAAAGGCAGUGUUUAAUUAACAUAAAAACUCAUUUUUGUAUUUCUUGGAUUACUUUGACUAUUCUAAUGUUUAAUUACAUAUG: 0.593
AAAACAAAAAUGAAAGGAAAAGGGUCCUUAUUUGCAAGGCUACUUUAAAGUGCUACUUGAAAGCACAGGCUAGACAGAAAGCACAAGGAACCUAGGGGGUUGAUACAAUG: 0.537
GUGCUUUGUAAUCUCUGCUUGAGUGUUGCCCAUACUGGGCUGUGGCUUUGAAGGUCAUUUGCACAAGAGCACGUGACCCAGAGAUGGAGAAGUGAGGUUCAGGGAGGGUG: 0.276
GUUAGCAUGGAACAGAACGCUUUUCACAAAACAAAGGACUGUUUUACAAAUGAUUAUUCCGACAGUGUGUCGACAUAAACUUUUACAACUGCACAGCAGCCAAAAAAAGA: 5.9
ACCCAUCUUUCCCUGCAGCUCACACCUACGCCCCAAAAGCAGUUCCCAAAGCAGUCAUGGUGCACAUCCUAACUUUGGGGUUGGCGGUGAGCCGGCCCCACUCUCUGGGU: 0.306
UGAAUGCAUGGCAUGAUACAACUAAUUUAAGAGUCUUUUAUAAAUAAAGUUUGCAUUAACUAUACCUACUCCCAAGAUGCUCCAUAUCAUGGAGUGUUGGGCAGCAAUUU: 17.2
UCUAACUCGAUCAGUGUCUUUUCAGCACUUUGGAGCAUUUCCUUGGCUCAUCUAGUCUUCCUUUUGUAGCGCAUGGUUGGGAGGAAAAAGUGCAUGCCUCUGUACGUCAC: 20.7
UAUUUGACUUUGGAAUUUUGCAUUCGAGGUAUACUGUCAUUUCUUGAAAUCUUUUUCUCGUUUAGUUGCUCUGUGGGAAAUGUGAGGAAGCCUAAGUUUGUAUUUGUAAA: 1.09

Series 2
Target: Sal-like protein 4, full length isoform B (SALL4, Homo sapiens, UniProt Q9UJQ4-2, residues 1-616)
Method: universal PBM
Molecule type: double-stranded DNA, one strand shown
Sample: in vitro
Tested at: not given
Notes: 8-mer, flanks averaged, mean of replicates
Direction: higher = stronger binding
Measurement: E-score
Construct (chain): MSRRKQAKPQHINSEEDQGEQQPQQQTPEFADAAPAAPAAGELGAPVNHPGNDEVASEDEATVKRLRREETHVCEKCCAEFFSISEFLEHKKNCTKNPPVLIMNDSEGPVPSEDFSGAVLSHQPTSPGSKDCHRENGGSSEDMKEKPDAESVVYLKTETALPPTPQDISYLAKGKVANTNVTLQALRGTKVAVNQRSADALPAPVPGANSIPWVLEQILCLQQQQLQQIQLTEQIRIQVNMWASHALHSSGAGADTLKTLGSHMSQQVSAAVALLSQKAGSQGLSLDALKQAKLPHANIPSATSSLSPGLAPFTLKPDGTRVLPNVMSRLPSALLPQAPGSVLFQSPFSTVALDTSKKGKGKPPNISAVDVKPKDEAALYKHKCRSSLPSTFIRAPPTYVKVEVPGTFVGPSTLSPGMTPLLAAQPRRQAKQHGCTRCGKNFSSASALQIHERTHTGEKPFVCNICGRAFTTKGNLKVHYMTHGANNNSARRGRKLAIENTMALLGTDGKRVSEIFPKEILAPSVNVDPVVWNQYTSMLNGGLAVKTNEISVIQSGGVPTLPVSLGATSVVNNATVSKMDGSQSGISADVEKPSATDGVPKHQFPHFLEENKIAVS
CGAGTATC: -0.109
GATGACCC: -0.0511
CCATCAGC: -0.151
CGCGAGGC: -0.194
TACTTAAA: 0.17
AAGCAAGC: -0.0425
CAAATAAC: 0.268
AAGCGCCA: -0.118
AGCTTTCA: -0.0873
AAGTATTC: 0.164
ATAGTCCA: 0.108
ATTCGGTG: -0.0249
CATAGGAA: 0.143
TGATGGCA: 0.0273
AGGGAGCC: -0.389
AACGACAC: -0.029
ACACTGAA: 0.17
AAATCAGT: 0.127
AAACACCC: -0.089
ATCCGGCC: -0.259
AAGCCGCC: -0.32
AACGTTAC: 0.115
ATACGGCC: -0.0241
ATGCCGCG: -0.251
ACAAAGGG: -0.0152

Series 3
Target: Prothrombin, mature alpha-thrombin (F2, Homo sapiens, UniProt P00734)
Method: aptamer microarray, sandwich
Molecule type: DNA with 2'F-ANA
Sample: in vitro
Tested at: 200 nM
Notes: whole 15-mer aptamer, many near background
With: Cy3 exosite-II aptamer, 400 nM
Direction: higher = stronger binding
Measurement: mean fluorescence intensity
Oligonucleotide: GGTTGGTGTGGTTGG
2'F-ANA at 2 4 5 9 10 13 15: 56.4 a.u.
2'F-ANA at 1 2 4 6 7 8 9 10 11 13 14 15: 50.5 a.u.
2'F-ANA at 2 3 5 7 11 12 13 14 15: 57.1 a.u.
2'F-ANA at 3 10 11 12: 648 a.u.
2'F-ANA at 1 2 5 7 8 11 12 15: 93.5 a.u.
2'F-ANA at 5 6 9 10 12 13: 91.7 a.u.
2'F-ANA at 8 9 12 13 14 15: 188 a.u.
2'F-ANA at 1 3 4 5 6 8 9 11 12 14: 49.4 a.u.
2'F-ANA at 3 7 8 11 12 14: 781 a.u.
2'F-ANA at 2 3 5 6 7 8 10 11 13: 62.9 a.u.
2'F-ANA at 1 2 4 5 6 8 9 10 11 12 14 15: 48.8 a.u.
2'F-ANA at 2 7 9 12 13 14: 162 a.u.
2'F-ANA at 1 3 4 7 10 13 14: 78.9 a.u.
2'F-ANA at 1 2 3 5 6 7 8 10 13 14 15: 49.9 a.u.
2'F-ANA at 2 4 5 6 7 8 9 12 15: 155 a.u.
2'F-ANA at 2 3 4 7 8 12 14: 525 a.u.
2'F-ANA at 1 2 4 6 8 9 10 12 13 14: 50.5 a.u.
2'F-ANA at 2 3 5 7 9 11: 89.9 a.u.
2'F-ANA at 1 2 3 4 7 8 9: 164 a.u.
2'F-ANA at 1 4 8 10 14: 48.4 a.u.
2'F-ANA at 1 2 3 4 7 8 9 10 14 15: 51.1 a.u.
2'F-ANA at 1 5 7 8 11 13 15: 51.6 a.u.
2'F-ANA at 1 2 3 11: 218 a.u.

Series 4
Target: Histone acetyltransferase KAT6A, winged helix 1, GST fusion (KAT6A, Homo sapiens, UniProt Q92794, residues 1-85)
Method: protein binding microarray
Molecule type: double-stranded DNA, one strand shown
Sample: in vitro
Tested at: not given
Notes: 8-mer, flanks averaged, mean of 2 arrays, mostly near background
Relative to: not given
Direction: higher = stronger binding
Measurement: E-score
Construct (chain): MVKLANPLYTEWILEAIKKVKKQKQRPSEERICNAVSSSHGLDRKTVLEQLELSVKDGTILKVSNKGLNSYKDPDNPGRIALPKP
AAACGCCC: 0.202
ATATTTAA: -0.106
ATATGCTA: -0.0808
AGTATCCC: -0.00556
ATCTTGTA: -0.208
CTGCGGGC: 0.238
ATCATCGC: 0.155
CCTTTGAG: -0.215
ACACCACA: -0.239
ACCGCTAG: 0.179
CCATGTCA: -0.152
CTACCCAG: -0.165
AACAGATT: -0.25
GGGGCTAC: -0.00509
CATCGTCC: -0.0996
GACGCGGA: 0.276
ATTACTGA: -0.0702
CTGAGGGC: 0.0123
CATTGAGA: 0.064
CTGGCTTA: -0.23
TAAGCGCA: 0.22
GCCACCCC: 0.0623
AAAACTAC: 0.0947
GTGGGACA: -0.128
GGTTAGCA: -0.151

Series 5
Target: RING finger protein unkempt homolog, zinc fingers 1-6, GST-SBP tag (UNK, Homo sapiens, UniProt Q9C0B0, residues 30-357)
Chain of UniProt Q9C0B0 (30-357, looked up): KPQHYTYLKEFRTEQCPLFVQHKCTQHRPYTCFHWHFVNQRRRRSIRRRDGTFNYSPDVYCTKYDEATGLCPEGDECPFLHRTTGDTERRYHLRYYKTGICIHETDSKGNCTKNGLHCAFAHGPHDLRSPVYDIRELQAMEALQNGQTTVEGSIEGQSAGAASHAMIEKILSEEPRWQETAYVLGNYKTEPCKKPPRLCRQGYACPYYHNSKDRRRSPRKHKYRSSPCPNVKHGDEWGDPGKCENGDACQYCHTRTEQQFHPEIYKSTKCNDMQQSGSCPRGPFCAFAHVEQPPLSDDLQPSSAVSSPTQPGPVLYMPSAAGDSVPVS
Method: RNA Bind-n-Seq
Molecule type: RNA
Sample: in vitro
Tested at: not given
Notes: RNA with constant flanks, human and mouse sites, ends assumed
Relative to: input RNA pool
Direction: higher = stronger binding
Measurement: bound/input enrichment
All sequences stand within: GGGAGUUCUACAGUCCGACGAUC … CAACAGAGGAUUGAGCAUCA
GGACUGCAGAACGGCUCAGACUUGCAGUUCAUCGAGAUGCAGAGAGAUGCCAAUAGACAAAUUAGUGAAUACAAAUUCAAGCUUUCGAAAGCAGAACAAGACAUAGCUACCUUGGAACAA: 4.88 ratio
AUAUAGCUAGCUAGAUGUCCACCCAUACUCAUCCAUGUGUGUUUAAAUAUUUGGGGGAUAUAUCAGUCCAUAUGGAAGAGACGGUUCAUGGAUGACCUAGGAAUAGCCAUCAGACUAUAA: 0.754 ratio
UCGUGCACAUGUGUUCCCCUAAAGGUUGGGGAGCCUCGCUGUGUCUUGCUGUUCCCAGGCACCACCACAGCAGGUGCUGCCAUACUCUUGUGGUCUCUGUGCGCCCCCCCCCCCCCCCCA: 0.253 ratio
AAAGAAAAAGAUGAAAUGGUAGAACAAGAAUUUAACCGGUUGCUAGAAGCCACUUCUUACCUUAGUCACCAGUUAGACUUCAACGUCCUCAAUAAUAAACCUGUAUCCCUUGGCCAGGCA: 0.298 ratio
UGGGGGAGUUCUAAAAACAGGUGGUAUCUGUUUUUAAUUAUAAAAUAAUAAACAUUUACCAUAGAACAGUUACAAAGACAUGAAAAACACCUAAAACUCUACCACACACCUAGCCUUCCC: 0.904 ratio
AGCAGUGAGGAUGCCUCAACCCCUCAGUGUGUCCACACAAGAUUGACAGGAGAGGGUUCUUGCCCUCAUUCUGGAGAUGUUCAUAUCCAGAUAAACUCCAUACCUAAAGAAUGUGCAGAA: 0.126 ratio
GCCGGAAACAAACCAGAAGCUGUAGAAGUAACAUUUGCAGAUUUUGAUGGCGUCCUUUAUCAUAUUUCAAAUCCUAAUGGAGACAAAACAAAAGUGAUGGUCAGUAUUUCUUUGAAAUUC: 0.694 ratio
AUCAAUGCUGUGGUCCUGCUGAUCCUGCUGAGUGCCCUGGCAGAUCCCAAUCAGUAUCACUUUUCAGGCUCUGAACUAGGAGGGGAGUUUGAGUUCAUGGAUGAUGCCAACAUGUGCAUU: 0.32 ratio
